Measurements collected from several papers.
Parts stem from different laboratories: compare values within a part only. Positions count from the first letter of the parent shown.

Study 1 — method: universal PBM; form: double-stranded DNA, one strand shown; matrix: in vitro; tested at: 600 nM; direction: higher = stronger binding
Target: Sal-like protein 4, full length isoform A (SALL4, Homo sapiens, UniProt Q9UJQ4, residues 1-1053)
Sequence of UniProt Q9UJQ4 (whole entry, looked up): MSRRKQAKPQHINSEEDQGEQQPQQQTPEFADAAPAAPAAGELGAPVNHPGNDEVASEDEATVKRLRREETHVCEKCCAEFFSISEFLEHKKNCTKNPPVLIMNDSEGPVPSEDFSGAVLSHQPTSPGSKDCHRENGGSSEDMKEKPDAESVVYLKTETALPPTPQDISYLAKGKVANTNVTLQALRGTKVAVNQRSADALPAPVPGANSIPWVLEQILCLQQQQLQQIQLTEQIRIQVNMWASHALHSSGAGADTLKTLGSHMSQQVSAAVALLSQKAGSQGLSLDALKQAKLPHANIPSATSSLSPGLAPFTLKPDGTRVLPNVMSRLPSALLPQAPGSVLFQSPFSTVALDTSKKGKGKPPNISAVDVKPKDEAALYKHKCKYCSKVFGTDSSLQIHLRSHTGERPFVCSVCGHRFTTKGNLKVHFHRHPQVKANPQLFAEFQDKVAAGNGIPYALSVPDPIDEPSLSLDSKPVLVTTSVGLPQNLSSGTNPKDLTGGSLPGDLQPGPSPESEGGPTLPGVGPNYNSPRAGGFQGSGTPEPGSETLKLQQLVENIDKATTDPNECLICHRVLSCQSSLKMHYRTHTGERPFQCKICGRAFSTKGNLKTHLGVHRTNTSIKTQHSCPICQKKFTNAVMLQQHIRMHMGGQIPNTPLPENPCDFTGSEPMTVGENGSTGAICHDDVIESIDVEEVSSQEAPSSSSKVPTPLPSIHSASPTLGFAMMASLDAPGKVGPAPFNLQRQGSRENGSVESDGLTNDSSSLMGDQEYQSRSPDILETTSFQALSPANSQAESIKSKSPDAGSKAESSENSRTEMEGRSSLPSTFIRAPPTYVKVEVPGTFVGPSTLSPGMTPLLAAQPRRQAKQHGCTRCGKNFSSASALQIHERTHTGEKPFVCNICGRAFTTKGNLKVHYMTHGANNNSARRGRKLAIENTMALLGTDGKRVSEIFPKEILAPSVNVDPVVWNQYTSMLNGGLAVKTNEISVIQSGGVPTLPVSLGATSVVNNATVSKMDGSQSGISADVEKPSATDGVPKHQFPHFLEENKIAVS
Notes: 8-mer, flanks averaged, mean of replicates
| Sequence | E-score |
| --- | --- |
| CTGTCTCC | -0.189 |
| ATCCATTC | 0.0937 |
| GGTAACCA | -0.0937 |
| CGGCATAA | 0.15 |
| GGTACATA | 0.16 |
| AGCCCATG | -0.16 |
| AACCATTC | 0.0885 |
| AGAGACTG | -0.268 |
| CATGCTCA | 0.0486 |
| ATTAGTAA | 0.292 |
| GGACGGGA | -0.229 |
| CCATAGCG | -0.0972 |
| ATTCGAGG | -0.0614 |
| ATAAGCAA | 0.326 |
| TAGAGGAA | 0.0724 |
| AGCAACAA | 0.17 |
| ATATCCAA | 0.226 |
| GAAACCTC | -0.249 |
| AAGATCGG | -0.182 |
| CCGGTTAC | -0.194 |
| ATGAATTC | 0.203 |
| CCCTAACG | 0.0401 |
| CGGCTAAC | -0.131 |
| ATTGAAAG | 0.207 |
| ATCGCGGG | -0.289 |

Study 2 — method: RNA Bind-n-Seq; form: RNA; matrix: in vitro; tested at: not given; baseline: input RNA pool; direction: higher = stronger binding
Target: RING finger protein unkempt homolog, zinc fingers 1-6, GST-SBP tag (UNK, Homo sapiens, UniProt Q9C0B0, residues 30-357)
Notes: RNA with constant flanks, human and mouse sites, ends assumed
Residues (chain): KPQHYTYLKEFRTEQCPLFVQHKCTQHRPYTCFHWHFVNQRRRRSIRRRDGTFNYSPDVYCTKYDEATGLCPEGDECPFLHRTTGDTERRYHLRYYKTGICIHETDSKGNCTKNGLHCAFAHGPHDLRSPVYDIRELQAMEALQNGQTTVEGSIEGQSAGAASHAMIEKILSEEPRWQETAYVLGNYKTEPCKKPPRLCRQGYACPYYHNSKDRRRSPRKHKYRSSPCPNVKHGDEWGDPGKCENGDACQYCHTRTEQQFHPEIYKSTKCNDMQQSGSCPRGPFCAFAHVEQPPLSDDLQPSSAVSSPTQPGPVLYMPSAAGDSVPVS
| Sequence | bound/input enrichment [ratio] |
| --- | --- |
| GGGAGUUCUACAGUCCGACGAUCGCAGCUGCGGCGCGUUUCUAUUCCAAGGACAAUGAAGGCAGCUGGUUCCGCUCCCUCUUUGUUCACAAAGUGGAUCCCCGGAAGGAUGCCCACUCCACCCUGCUGUCCAAGAAGGAAACCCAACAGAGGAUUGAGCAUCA | 0.0805 |
| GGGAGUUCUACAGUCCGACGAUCGGAAAUGGAGAAUUUUGUCAGUGUUACAUGGGCUCACAGAAACAAUUUAAAAUUACUAAACUUUCACCAGCAAUGGGCUGUAAAUUCAGACUAUCGGCCAGAAAUGACUAUGGUACAAGUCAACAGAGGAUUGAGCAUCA | 0.497 |
| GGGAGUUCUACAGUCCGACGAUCAUGUGGUAUCGUUUACGGUUAUUAAAACCCCAGCCAAAUAUUAUUCCUACAGUAAAGAAAAUAGUUCUGCUUGCAGGAUGGGCAUUGUUCUUAUUCCUUGCAUAUAAAGUUUCCAAAACACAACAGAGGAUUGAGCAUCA | 0.327 |
| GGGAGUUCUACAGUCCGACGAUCAUUGUGGAGUAUCAGAACAAGGGCCGCGGGAACGAGUGCGUGCAGUACCAGCAUGUGUUACAUAGAAAUCUCAUUUAUUUGGCUACCAUUGCAGAUGCCAGUCCAACCAGCACUUCAAAACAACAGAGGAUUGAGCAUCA | 0.388 |
| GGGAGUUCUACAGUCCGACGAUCGAGAUGGAAGAGGAAACAUCAGGCUAUGGCUUUAAGCCGAAAUAUGAUGGAGAAGAUCUUGCUUACACAGUGAAAAAUCUGAGACGAAGUACAAAGUAUAAAUUUAAGGUCAUUGCUUAUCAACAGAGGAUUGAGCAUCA | 0.25 |
| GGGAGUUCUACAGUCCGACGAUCCUUGCACGAAUUUUGUAUAUUUCAAAUAUUUCUGUAAAGGUUUCUUCUUUUCUGUUAGAGUGUGGUGUUAAGCCAGAGUCAGUGGUUUGUGUUCUCAUUAAAAUGUUUGUUUAAAUCCUACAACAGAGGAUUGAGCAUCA | 0.568 |
| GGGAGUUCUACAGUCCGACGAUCUGCUGCUCAGGCUGAGAGCUCAGACAAAACAGCAGCUCUUAGAAUAUAAGUCCAUGAUCGACACAAAUGAAGAAAAAACUCCAGAACAGAUUAUGCAAGAAAAACAGAUCGAAGUUAAAACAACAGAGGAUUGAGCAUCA | 0.817 |
| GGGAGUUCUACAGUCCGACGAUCACCCUAUUUGAAUUCUGAGCAUUAUUUAUAAGUAUAAAAUGAUGAUAUAUAAGUGAAUUUUGUGCUCUUGUUUGUAUUUUAUUAAGGAAAAUGAAAAUAAUCUGGCAUCAGUUUCAUUUUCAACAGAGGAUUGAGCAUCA | 0.435 |

Study 3 — target: CCND2, cyclin fold, Cln2 fusion (human); method: yeast growth competition, sequencing; matrix: yeast; notes: weak parent motif; baseline: not given; direction: higher = stronger binding
Parent: E2F2 docking peptide (human); LPAKRKLDLEGIG; partner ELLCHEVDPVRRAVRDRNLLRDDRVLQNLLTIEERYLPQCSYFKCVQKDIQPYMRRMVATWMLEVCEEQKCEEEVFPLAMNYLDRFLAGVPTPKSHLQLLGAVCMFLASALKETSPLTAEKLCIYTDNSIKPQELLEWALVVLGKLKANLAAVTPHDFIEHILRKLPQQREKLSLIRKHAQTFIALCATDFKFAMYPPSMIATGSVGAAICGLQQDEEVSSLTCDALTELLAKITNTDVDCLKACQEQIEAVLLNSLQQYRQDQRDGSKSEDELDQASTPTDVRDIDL
| Change | normalised enrichment score |
| --- | --- |
| LPAKAKLDLEGIG [R5A] | 0.244 |
| LAAKRKLDLEGIG [P2A] | 0.14 |
| LPAKRALDLEGIG [K6A] | 0.248 |
| LPAKKKLDLEGIG [R5K] | 0.104 |
| LPAKRKLDLEGAG [I12A] | 0.523 |
| LPAKRKLDAEGIG [L9A] | 0.0134 |
| LPAKRKLALEGIG [D8A] | -0.127 |

Study 4 — method: protein binding microarray; form: double-stranded DNA, one strand shown; matrix: in vitro; tested at: not given; baseline: not given; direction: higher = stronger binding
Target: Histone acetyltransferase KAT6A, both winged helices, GST fusion (KAT6A, Homo sapiens, UniProt Q92794, residues 1-181)
Notes: 8-mer, flanks averaged, mean of 2 arrays, mostly near background
Construct (chain): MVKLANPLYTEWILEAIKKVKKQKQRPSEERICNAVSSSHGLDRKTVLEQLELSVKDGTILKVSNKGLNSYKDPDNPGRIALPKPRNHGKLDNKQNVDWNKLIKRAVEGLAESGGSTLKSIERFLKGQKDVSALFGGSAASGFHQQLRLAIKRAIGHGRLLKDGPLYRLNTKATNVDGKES
| Sequence | E-score |
| --- | --- |
| CAAGTGAA | -0.146 |
| AACAGTCG | 0.0435 |
| GCAAAGGC | -0.0811 |
| CGGAACGC | 0.295 |
| ATCAAATG | 0.00291 |
| AGCTGTAA | -0.146 |
| CTAGTAAG | -0.0865 |
| ACTGTGAC | -0.0609 |
| CCGGAGCC | 0.0847 |
| TAGGATGA | -0.0317 |
| CCTCACAA | 0.0152 |
| CGAATGCC | 0.1 |
| GGTGCCCA | -0.0916 |
| CTATCCCA | -0.196 |
| AAGGGGGC | -0.206 |
| GGATCGCA | 0.0069 |
| GCCAAGAA | -0.101 |

Mixed results
| Molecule | target | test | test system | setting | how to read | endpoint | value |
| --- | --- | --- | --- | --- | --- | --- | --- |
| PhoQ, residues 284 288 289 292 302 303 TLMATV | PhoP, residues 12 14 15 18 19 TPWLV (Escherichia coli, UniProt P23836) | Sort-seq, measured: YFP reporter | E. coli | PhoQ-PhoP variant library, added: 10 µM Mg2+ | baseline: high Mg2+ state, higher = stronger signaling | fold induction | 19.4 |

Excerpt of the above (study 2):
| Sequence | bound/input enrichment [ratio] |
| --- | --- |
| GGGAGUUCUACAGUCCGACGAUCACCCUAUUUGAAUUCUGAGCAUUAUUUAUAAGUAUAAAAUGAUGAUAUAUAAGUGAAUUUUGUGCUCUUGUUUGUAUUUUAUUAAGGAAAAUGAAAAUAAUCUGGCAUCAGUUUCAUUUUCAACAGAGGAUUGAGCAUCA | 0.435 |
| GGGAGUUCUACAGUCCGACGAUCAUGUGGUAUCGUUUACGGUUAUUAAAACCCCAGCCAAAUAUUAUUCCUACAGUAAAGAAAAUAGUUCUGCUUGCAGGAUGGGCAUUGUUCUUAUUCCUUGCAUAUAAAGUUUCCAAAACACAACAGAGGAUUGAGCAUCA | 0.327 |
| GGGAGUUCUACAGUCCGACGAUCUGCUGCUCAGGCUGAGAGCUCAGACAAAACAGCAGCUCUUAGAAUAUAAGUCCAUGAUCGACACAAAUGAAGAAAAAACUCCAGAACAGAUUAUGCAAGAAAAACAGAUCGAAGUUAAAACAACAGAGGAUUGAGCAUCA | 0.817 |
| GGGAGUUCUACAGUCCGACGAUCAUUGUGGAGUAUCAGAACAAGGGCCGCGGGAACGAGUGCGUGCAGUACCAGCAUGUGUUACAUAGAAAUCUCAUUUAUUUGGCUACCAUUGCAGAUGCCAGUCCAACCAGCACUUCAAAACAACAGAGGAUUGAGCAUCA | 0.388 |
| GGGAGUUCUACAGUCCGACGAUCGCAGCUGCGGCGCGUUUCUAUUCCAAGGACAAUGAAGGCAGCUGGUUCCGCUCCCUCUUUGUUCACAAAGUGGAUCCCCGGAAGGAUGCCCACUCCACCCUGCUGUCCAAGAAGGAAACCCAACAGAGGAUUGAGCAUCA | 0.0805 |
